Experimental data collected from several papers.
Lines come from different studies, so protocols differ. Values joined by “and” are separate records of one study, mostly repeats; a detail may differ. Numbers after ± are the reported error.
B1: KLRK1 73-216 (Homo sapiens, UniProt P26718); sequence looked up; chain IWSAVFLNSLFNQEVQIPLTESYCGPCPKNWICYKNNCYQFFDESKNWYESQASCMSQNASLLKVYSKEDQDLLKLVKSYHWMGLVHIPTNGSWQWEDGSILSPNLLTIIEMQKGDCALYASSFKGYIENCSTPNTYICMQRTV
B2: PUX3 (Arabidopsis thaliana, UniProt Q9SUG6); chain MSSKDKKLSKPTSGRTGGIRTLSDLNRRSEPDSDSDSDGPQEYFTGGEKSGMLVQDPTKEPKHDDVDEIFNQARQLGAVEGPLEHPSSSRSFTGTGRLLSGESVPTALQQPEPVIHNIIFWSNGFTVDDGPLRKLDDPENASFLDSIRKSECPKELEPVDKRAPVHVNLMRRDEKCPEKEKLKVSFQGVGRTLGGASSSTASSQSNLTDVAAVQSPLQSLVVDETLPSTSIQLRLADGTRMVAKFNNHHTVNDIRGFIEFSRPGNPNNYTLQVMGFPPKPLTDPSQTIEQAGLASSVVIQKF
B3: IgG L:G68W; V domains shown; VH QVQLVQSGAEVKKPGASVKVSCKASGYTFTNYGLSWVRQAPGQGLEWMGWISANNGDTNYGQEFQGRVTMTTDTSTSTAYMELRSLRSDDTAVYYCARDSSSSWARWFFDLWGRGTLVTVSS; VL SYVLTQPPSVSVAPGKTARITCGGNIIGSKLVHWYQQKPGQAPVLVIYDDGDRPSGIPERFSGSNSWNTATLTISRVEAGDEADYYCQVWDTGSDPVVFGGGTKLTVL
B4: sst2 catalytic domain 245-435 F403W (Schizosaccharomyces pombe, UniProt Q9P371); sequence looked up; chain AGTFKIHAYTEGGKPLRTIYLPKLLKKVFLDVVKPNTKKNLETCGILCGKLRQNAFFITHLVIPLQEATSDTCGTTDEASLFEFQDKHNLLTLGWIHTHPTQTCFMSSVDLHTHCSYQLMLPEAIAIVMAPSKNTSGIFRLLDPEGLQTIVKCRKPGLWHPHEGKVYTMVAQPGHVREINSKLQVVDLRVK
B5: CFH 1108-1231 (Homo sapiens, UniProt P08603); sequence looked up; chain KCGPPPPIDNGDITSFPLSVYAPASSVEYQCQNLYQLEGNKRITCRNGQWSEPPKCLHPCVISREIMENYNIALRWTAKQKLYSRTGESVEFVCKRGYRLSSRSHTLRTTCWDGKLEYPTCAKR
B6: EFR3B 716-787 (Homo sapiens, UniProt Q9Y2G0); chain VPAEEITYETLKKAIVDSVAVEEQERERRRQVVEKFQKAPFEEIAAHCGARASLLQSKLNQIFEITIRPPPS
Chain of UniProt Q64663 (whole entry, unmodified, looked up): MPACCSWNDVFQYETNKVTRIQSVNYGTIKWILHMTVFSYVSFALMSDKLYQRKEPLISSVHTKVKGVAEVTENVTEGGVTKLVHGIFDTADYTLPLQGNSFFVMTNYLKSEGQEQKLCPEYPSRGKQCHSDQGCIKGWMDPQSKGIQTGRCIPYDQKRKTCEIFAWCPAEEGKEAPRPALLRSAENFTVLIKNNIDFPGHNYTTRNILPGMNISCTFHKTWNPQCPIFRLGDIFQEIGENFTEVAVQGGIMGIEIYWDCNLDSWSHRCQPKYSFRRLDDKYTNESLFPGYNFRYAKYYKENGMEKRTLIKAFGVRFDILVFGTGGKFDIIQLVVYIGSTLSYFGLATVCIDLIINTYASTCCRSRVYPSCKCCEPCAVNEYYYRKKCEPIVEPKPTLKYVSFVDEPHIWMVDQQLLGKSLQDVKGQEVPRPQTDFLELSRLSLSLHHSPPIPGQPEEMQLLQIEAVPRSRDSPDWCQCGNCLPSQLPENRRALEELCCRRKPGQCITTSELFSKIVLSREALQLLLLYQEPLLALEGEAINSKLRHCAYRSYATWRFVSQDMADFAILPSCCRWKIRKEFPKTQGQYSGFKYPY
Chain of UniProt P01024 (whole entry, looked up): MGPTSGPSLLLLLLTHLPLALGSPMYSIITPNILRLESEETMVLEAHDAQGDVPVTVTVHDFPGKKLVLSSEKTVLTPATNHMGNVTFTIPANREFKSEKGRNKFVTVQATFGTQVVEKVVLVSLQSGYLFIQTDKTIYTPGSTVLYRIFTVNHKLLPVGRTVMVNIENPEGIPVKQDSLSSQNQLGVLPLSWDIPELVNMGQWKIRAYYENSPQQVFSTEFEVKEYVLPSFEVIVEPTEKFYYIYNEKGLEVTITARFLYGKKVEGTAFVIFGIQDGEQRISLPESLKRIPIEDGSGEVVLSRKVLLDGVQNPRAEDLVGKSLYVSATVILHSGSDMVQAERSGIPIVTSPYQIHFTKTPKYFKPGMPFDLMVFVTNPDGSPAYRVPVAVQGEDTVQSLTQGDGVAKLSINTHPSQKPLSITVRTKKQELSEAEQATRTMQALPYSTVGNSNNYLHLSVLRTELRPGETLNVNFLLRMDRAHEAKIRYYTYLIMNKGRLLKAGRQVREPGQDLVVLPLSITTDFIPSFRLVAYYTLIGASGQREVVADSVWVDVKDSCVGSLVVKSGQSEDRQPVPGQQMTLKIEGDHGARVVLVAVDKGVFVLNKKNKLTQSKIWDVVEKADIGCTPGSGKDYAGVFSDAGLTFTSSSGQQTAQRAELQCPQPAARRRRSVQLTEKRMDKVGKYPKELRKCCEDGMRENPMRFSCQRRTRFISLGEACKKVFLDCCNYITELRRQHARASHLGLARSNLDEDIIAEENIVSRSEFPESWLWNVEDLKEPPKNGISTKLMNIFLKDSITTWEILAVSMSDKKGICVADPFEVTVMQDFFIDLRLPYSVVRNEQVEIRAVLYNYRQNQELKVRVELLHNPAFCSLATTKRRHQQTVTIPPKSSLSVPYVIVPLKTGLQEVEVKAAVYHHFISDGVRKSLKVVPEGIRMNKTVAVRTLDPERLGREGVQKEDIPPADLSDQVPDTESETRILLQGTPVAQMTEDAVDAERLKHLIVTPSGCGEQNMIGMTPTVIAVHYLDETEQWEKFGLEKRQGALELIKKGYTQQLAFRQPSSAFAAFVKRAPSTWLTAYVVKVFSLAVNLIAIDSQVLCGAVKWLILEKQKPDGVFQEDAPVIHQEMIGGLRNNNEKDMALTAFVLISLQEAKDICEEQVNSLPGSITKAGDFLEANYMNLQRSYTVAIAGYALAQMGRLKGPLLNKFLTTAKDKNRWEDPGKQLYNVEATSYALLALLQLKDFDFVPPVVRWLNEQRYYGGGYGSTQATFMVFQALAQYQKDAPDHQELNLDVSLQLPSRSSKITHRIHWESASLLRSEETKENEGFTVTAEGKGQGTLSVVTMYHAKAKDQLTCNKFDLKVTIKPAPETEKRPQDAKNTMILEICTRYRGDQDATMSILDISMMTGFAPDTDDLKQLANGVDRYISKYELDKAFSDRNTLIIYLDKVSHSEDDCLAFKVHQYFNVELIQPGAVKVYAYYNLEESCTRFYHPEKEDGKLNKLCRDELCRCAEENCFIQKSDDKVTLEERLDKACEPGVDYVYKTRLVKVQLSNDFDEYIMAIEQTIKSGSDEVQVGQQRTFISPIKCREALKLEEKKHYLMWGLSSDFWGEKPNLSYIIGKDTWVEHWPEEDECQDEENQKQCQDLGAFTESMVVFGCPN
Chain of UniProt P25963 (whole entry, looked up): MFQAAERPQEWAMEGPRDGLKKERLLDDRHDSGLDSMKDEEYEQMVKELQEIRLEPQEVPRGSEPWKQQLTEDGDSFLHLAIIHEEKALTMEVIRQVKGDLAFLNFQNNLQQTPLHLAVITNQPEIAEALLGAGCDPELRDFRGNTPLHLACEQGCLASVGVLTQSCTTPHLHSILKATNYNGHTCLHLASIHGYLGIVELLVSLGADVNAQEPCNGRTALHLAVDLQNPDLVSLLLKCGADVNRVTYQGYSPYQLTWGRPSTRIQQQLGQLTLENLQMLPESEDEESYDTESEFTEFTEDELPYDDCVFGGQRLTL
Chain of UniProt P54609 (whole entry, looked up): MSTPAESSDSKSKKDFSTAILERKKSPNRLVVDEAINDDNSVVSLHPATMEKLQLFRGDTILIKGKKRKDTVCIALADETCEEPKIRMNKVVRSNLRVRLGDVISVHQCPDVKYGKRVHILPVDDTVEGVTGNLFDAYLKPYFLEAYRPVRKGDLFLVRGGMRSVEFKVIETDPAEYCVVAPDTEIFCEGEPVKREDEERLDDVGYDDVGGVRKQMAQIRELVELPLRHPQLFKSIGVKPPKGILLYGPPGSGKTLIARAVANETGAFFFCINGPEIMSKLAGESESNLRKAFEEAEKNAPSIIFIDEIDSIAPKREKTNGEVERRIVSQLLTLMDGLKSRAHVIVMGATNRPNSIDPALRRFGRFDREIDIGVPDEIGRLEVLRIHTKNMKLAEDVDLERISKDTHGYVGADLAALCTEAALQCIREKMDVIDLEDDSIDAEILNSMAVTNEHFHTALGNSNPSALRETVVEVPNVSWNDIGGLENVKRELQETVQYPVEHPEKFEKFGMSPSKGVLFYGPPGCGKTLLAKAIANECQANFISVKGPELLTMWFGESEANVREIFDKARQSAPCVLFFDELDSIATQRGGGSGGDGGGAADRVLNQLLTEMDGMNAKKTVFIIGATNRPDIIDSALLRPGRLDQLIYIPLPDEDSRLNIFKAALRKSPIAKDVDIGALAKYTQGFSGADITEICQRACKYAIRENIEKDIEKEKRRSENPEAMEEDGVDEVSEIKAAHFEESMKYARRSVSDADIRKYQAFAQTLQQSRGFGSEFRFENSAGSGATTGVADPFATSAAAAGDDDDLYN
Chain of UniProt Q29983 (whole entry, looked up): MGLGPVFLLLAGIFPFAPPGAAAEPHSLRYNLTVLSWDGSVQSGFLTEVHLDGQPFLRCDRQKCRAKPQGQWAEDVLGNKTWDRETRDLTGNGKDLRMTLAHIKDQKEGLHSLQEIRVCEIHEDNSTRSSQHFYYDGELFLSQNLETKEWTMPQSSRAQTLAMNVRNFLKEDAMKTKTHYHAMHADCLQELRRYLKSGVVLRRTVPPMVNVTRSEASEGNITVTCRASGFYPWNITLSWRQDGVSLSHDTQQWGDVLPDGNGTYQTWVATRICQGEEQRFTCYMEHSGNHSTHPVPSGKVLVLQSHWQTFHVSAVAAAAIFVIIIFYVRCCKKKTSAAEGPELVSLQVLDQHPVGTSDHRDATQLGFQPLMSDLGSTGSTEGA

`KLLITIHDRKEFAKFEEERMRAKWDTANNPLYKEATSTFTNITYRGT (ITGB3 742-788 A735M (Homo sapiens, UniProt P05106); sequence looked up)` gave a Kd of 243000 nM (Tln1 309-405 (Mus musculus, UniProt P26039); NMR titration).
`B1 (KLRK1 73-216)` gave a Kd of 6.1 ± 0.6 nM (MICA high-affinity allele 24-307 (Homo sapiens, UniProt Q29983); SPR; Fc fusion).
With `B2 (PUX3)` the Kd was 830 ± 100 nM (CDC48A 1-463 (Arabidopsis thaliana, UniProt P54609); BLI; 25 °C).
For `B3 (IgG L:G68W)`, the Kd was 0.09 nM (IL13 fragment (Homo sapiens); SPR; antibody).
For `B4`, the Kd was 3600 ± 300 nM (UBB mature (UniProt P0CG47); ITC).
`BzATP` gave a normalized current of 0.618 and 0.674 and 0.569 (P2X purinoceptor 7 (P2rx7, Rattus norvegicus, UniProt Q64663, I214A/Q143A/R125A); ion current, agonist, two-electrode voltage clamp; Xenopus oocytes; 300 µM).
With `colistin` the MIC was 8 µg/mL (Salmonella enterica serovar Choleraesuis; broth microdilution; clinical isolate RKI-No 532/14-1).
With `GSGASGTSKCCYSLPATT (designed peptide)` the Kd was 1700 ± 600 nM (ERBB2 23-652 (Homo sapiens, UniProt P04626); ELISA; peptide).
`Peginesatide` gave a phosphorylation level of 6.2 fold (UT7/EPO; tyrosine phosphorylation, LC-MS/MS phosphoproteomics, trypsin, measured: JAK2 tyrosine 813; 10 nM, 15 min, with: 10 U/mL EPO; relative to: vehicle).
The tissue uptake of `FNA / CGLSGLGVA-NH2 ([18F]FNA-labelled, C-amide)` is reported as 538 %ID/g (ex vivo gamma counting; peptide, healthy mouse, urine; 60 min post injection).
`petF ferredoxin (Synechocystis sp. PCC 6803, UniProt P27320)` gave a Kd of 10700 ± 6800 nM (narB M306A (Synechococcus sp. PCC 7942); UV-visible difference titration).
For `MMHVNNFPFRRHSWICFDVD (PDE4D 1-20; pS13)`, the Kd was 1500 nM (AKAP6 (Homo sapiens, UniProt Q13023-1); SPR; peptide).
`B5 (CFH 1108-1231)` has a Kd of 3800 ± 500 nM (C3 C3dg 955-1303 (Homo sapiens, UniProt P01024); SPR).
The Kd of `LPDTDDRHRIEEKRKRTYETFKSIMKKSPANGP (Rela 289-321 F318A (Mus musculus, UniProt Q04207); sequence looked up)` is reported as 2700 ± 700 nM (NFKBIA 67-206 (Homo sapiens, UniProt P25963); ITC; peptide).
With `B6 (EFR3B 716-787)` the Kd was 0.405 nM (TTC7B/FAM126A 1-308; BLI).
Under “rate constant k2”, `11-deoxycorticosterone` is recorded as 1.03 ± 0.166 s⁻¹ (CYP11B2 (human); substrate binding, stopped-flow global kinetic fitting; purified enzyme; 3-state induced fit model, with: no adrenodoxin).

Some of these lines once more:
For `B3 (IgG L:G68W)`, the Kd was 0.09 nM (IL13 fragment (Homo sapiens); SPR; antibody).
